Results gathered from unrelated publications.
Numbered parts are unrelated; each lists some results of a single study. Positions count from the first letter of the parent shown.

Set 1
Target: NFE2L1, bZIP domain (human)
Method: DHFR protein complementation
Matrix: yeast
Notes: single substitutions, most at no-binding floor
Baseline: wild-type JUN-FOS pair
Direction: higher = stronger binding
Quantity: binding fitness
Parent: JUN, bZIP domain (human); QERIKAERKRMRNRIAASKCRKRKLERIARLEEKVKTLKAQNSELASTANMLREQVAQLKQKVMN; partner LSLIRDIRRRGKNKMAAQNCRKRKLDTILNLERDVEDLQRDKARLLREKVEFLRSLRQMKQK
Substitution = I28W; value = -1.55 natural log
Substitution = K34C; value = -1.42 natural log
Substitution = V56K; value = -1.53 natural log
Substitution = L52D; value = -1.41 natural log
Substitution = T37L; value = -1.58 natural log
Substitution = A57Q; value = -1.29 natural log
Substitution = K34V; value = -1.54 natural log
Substitution = E44L; value = -1.41 natural log
Substitution = E33V; value = -1.47 natural log
Substitution = E32R; value = -1.43 natural log
Substitution = A29L; value = -1.53 natural log
Substitution = R30G; value = -1.36 natural log
Substitution = E33T; value = -1.43 natural log

Set 2
Target: ABI1, truncated, D143A, DHFR fusion (Arabidopsis thaliana)
Method: DHFR PCA, deep sequencing
Matrix: yeast
Notes: methotrexate growth selection, single substitutions
Together with: (+)-ABA 0 µM
Baseline: wild-type fitted maximum
Direction: higher = stronger binding
Quantity: relative binding score
Parent: PYL1, truncated, DHFR fusion (Arabidopsis thaliana); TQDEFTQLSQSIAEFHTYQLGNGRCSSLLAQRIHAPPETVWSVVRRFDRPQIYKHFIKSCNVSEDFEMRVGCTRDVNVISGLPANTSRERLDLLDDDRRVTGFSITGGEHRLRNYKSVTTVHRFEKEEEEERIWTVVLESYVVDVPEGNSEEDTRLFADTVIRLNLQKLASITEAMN
Substitution = E139L; value = 2.04%
Substitution = E128R; value = 14.7%
Substitution = F15V; value = 0.343%
Substitution = T135H; value = -12.1%
Substitution = S9K; value = 58.4%
Substitution = S150F; value = -15.1%
Substitution = A35N; value = -0.814%
Substitution = A170W; value = -8.3%
Substitution = P83V; value = 6.44%
Substitution = Y18G; value = 1.04%
Substitution = Y115N; value = 1.31%

Set 3
Target: Eukaryotic initiation factor 4A-I (EIF4A1, Homo sapiens, UniProt P60842, residues 1-406, full length assumed)
Chain of UniProt P60842 (whole entry, looked up): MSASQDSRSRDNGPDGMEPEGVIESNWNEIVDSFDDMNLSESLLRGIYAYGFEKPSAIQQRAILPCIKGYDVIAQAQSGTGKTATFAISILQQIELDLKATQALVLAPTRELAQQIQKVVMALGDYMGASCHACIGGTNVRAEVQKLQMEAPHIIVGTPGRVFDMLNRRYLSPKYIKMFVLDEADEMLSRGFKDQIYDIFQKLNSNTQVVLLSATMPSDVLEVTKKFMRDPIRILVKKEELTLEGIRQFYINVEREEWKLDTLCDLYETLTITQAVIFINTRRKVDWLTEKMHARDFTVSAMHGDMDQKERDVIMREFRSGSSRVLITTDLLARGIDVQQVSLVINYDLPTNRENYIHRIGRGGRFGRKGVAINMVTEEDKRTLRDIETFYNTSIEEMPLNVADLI
Method: RNA Bind-n-Seq
Molecule type: RNA
Matrix: in vitro
Concentration: 90 pmol
Notes: 4-mer, random 30-nt RNA, single round
Together with: 3 µM iPr-DMDA-PatA, 2 mM ADP, 2 mM phosphate
Baseline: input library
Direction: higher = stronger binding
Quantity: 4-mer enrichment
Oligonucleotide = AUUA; value = 1.37 fold
Oligonucleotide = ACUA; value = 1.25 fold
Oligonucleotide = UGAC; value = 1.09 fold
Oligonucleotide = UCCG; value = 0.918 fold
Oligonucleotide = AUCG; value = 1.05 fold
Oligonucleotide = GUAA; value = 1.18 fold
Oligonucleotide = CGUA; value = 0.989 fold
Oligonucleotide = GUUU; value = 1.01 fold
Oligonucleotide = AGAU; value = 1.38 fold
Oligonucleotide = UUGA; value = 1.21 fold
Oligonucleotide = GAUA; value = 1.3 fold
Oligonucleotide = UUAG; value = 1.09 fold
Oligonucleotide = UCCA; value = 1.07 fold
Oligonucleotide = CGGU; value = 0.782 fold
Oligonucleotide = AAAG; value = 1.4 fold
Oligonucleotide = AAGC; value = 1.08 fold

Set 4
Target: CCND2, cyclin fold, Cln2 fusion (human)
Method: yeast growth competition, sequencing
Matrix: yeast
Notes: weak parent motif
Baseline: not given
Direction: higher = stronger binding
Quantity: normalised enrichment score
Parent: MASTL docking peptide (human); PMIAKNLMCELDE; partner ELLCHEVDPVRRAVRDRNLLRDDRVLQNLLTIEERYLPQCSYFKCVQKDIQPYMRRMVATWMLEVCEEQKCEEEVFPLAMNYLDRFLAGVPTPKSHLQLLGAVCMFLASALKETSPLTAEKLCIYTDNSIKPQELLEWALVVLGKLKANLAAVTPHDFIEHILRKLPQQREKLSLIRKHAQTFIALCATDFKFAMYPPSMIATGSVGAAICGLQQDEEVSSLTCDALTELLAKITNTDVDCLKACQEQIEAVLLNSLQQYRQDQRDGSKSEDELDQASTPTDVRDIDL
Substitution = PMIKKNLMCELDE [A4K]; value = 0.31
Substitution = PMIAKNLMYELDE [C9Y]; value = -0.329
Substitution = PMIAKNDMCELDE [L7D]; value = -0.0689
Substitution = PMIAKDLMCELDE [N6D]; value = 0.072
Substitution = PMIAKNLMCFLDE [E10F]; value = -0.21
Substitution = PMIAKNEMCELDE [L7E]; value = 0.454
Substitution = PGIAKNLMCELDE [M2G]; value = 0.0415
Substitution = PMIAKNHMCELDE [L7H]; value = -0.921
Substitution = PMIAKILMCELDE [N6I]; value = 0.188
Substitution = PMIAKNLMCEEDE [L11E]; value = 0.368
Substitution = PMIAKPLMCELDE [N6P]; value = 0.00804
Substitution = PMIAKNLACELDE [M8A]; value = -0.232
Substitution = PMIAKLLMCELDE [N6L]; value = -0.155
Substitution = PMIAGNLMCELDE [K5G]; value = -0.193
Substitution = PMIAKNLMLELDE [C9L]; value = 0.15
Substitution = PMIAKALMCELDE [N6A]; value = -0.14

Set 5
Target: Ras GTPase-activating protein-binding protein 1, full length (G3BP1, Homo sapiens, UniProt Q13283)
Chain of UniProt Q13283 (whole entry, looked up): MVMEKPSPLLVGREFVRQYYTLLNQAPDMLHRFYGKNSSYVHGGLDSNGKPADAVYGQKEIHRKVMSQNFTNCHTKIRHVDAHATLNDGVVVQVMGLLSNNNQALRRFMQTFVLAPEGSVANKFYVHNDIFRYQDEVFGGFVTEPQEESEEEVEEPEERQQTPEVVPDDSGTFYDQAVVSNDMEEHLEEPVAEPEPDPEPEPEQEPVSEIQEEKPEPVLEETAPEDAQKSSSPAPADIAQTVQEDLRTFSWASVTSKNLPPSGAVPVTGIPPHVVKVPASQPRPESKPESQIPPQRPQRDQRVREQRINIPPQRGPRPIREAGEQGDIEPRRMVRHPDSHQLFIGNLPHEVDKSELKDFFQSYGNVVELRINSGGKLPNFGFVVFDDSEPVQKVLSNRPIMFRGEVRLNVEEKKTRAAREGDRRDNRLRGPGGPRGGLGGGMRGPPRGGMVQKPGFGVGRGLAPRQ
Method: RNA Bind-n-Seq
Molecule type: RNA
Matrix: in vitro
Concentration: 200 nM
Notes: whole 134-nt RNA, ends assumed
Together with: 150 mM LiCl
Baseline: input library
Direction: higher = stronger binding
Quantity: log2 enrichment
Each molecule: 7-deaza-guanosine replaces G
Oligonucleotide = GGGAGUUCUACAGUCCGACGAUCUAACUUUAGAGGAGGAUCUGAUGGAUAUGGCAGUGGACGUGGGUUUGGGGAUGGCUAUAAUGGGUAUGGAGGAGGACCUGGAGGUGGCAAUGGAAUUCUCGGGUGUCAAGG; value = -0.0746
Oligonucleotide = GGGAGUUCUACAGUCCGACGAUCUCCUCAAGUCCUGUGCUACACAUCGUAUGUACCGAAUCGGGGUGGGUGGUGGAAAGUAUUAUGUUACGCCGUUCGGAUCUGCACUUCCAGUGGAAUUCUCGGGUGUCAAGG; value = -0.133
Oligonucleotide = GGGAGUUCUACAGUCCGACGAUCUGGCCCUGGUGGCAUGCGGGGAGGAAGAGGUGGCCUCAUGGAUCGUGGUGGUCCCGGUGGAAUGUUCAGAGGUGGCCGUGGGGGAGACAGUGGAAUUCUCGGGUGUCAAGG; value = -0.104
Oligonucleotide = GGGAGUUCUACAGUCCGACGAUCAUUAAGGUCACCGUUGCAGGCCUGGCUGGAAAAGACCCAGUACAGUGUAGCCGUGAUGUGGUCAUUUGUCCUGAUGCCAGCCUUGAAGAUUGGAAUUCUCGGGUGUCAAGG; value = -1.56
Oligonucleotide = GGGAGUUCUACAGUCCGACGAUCACCAUGCAGGUGGGCAUCUUUGGGAAGUGGGGCAAGGGGGGGAUAGGGAGGGGGGUAACACUUUGGGUACAGGUGGUCCCAGGUCGUUUCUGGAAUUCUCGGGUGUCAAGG; value = 0.0372
Oligonucleotide = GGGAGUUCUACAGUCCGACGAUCUGGGAGGUGGAUUUUGUUUAUUUUUUUAGCUCAUUUCCAGCGGUGGGAAUUUUUUUUUAAUAUGUGUCAUGAAUAAAGUUGUUUUUGAAAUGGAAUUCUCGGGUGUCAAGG; value = -0.205
Oligonucleotide = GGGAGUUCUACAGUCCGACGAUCCAAGUCCUGUGCUACACAUCGUAUGUACCGAAUCGGGUUUUUGGGAAAGGGAGGGAAAGUAUUAUGUUACGCCGUUCGGAUCUGCACUUCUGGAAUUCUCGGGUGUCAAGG; value = 0.195
Oligonucleotide = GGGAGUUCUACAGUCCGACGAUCUCCUCAAGUCCUGUGCUACACAUCGUAUGUACCGAAUCGGUUUGGAGGAGGAAAGUAUUAUGUUACGCCGUUCGGAUCUGCACUUCCAGCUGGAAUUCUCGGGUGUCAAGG; value = -0.828
Oligonucleotide = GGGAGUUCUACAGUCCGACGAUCUGUGCUACACAUCGUAUGUACCGAAUCGGGGUUUUUUUGGGGUUUUUUUGGUUUUUUUGGGGAAAGUAUUAUGUUACGCCGUUCGGAUCUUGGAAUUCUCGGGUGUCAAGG; value = 1.52
Oligonucleotide = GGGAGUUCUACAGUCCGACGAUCUAAGGCCAGUAAAAUUUUAGUACCUGGAGGUUUGACUCUAAUUUUUGCACUGAUGGUGCCAAAGGGCCCUGAGUCAAAAGGAUAGCCAAGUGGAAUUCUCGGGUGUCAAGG; value = -2.58
Oligonucleotide = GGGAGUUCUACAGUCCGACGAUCAGUCCUGUGCUACACAUCGUAUGUACCGAAUCAAACCCCCCCAAAUUUAAAUUUAAAAAAGUAUUAUGUUACGCCGUUCGGAUCUGCACUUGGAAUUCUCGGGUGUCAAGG; value = 1.19

Set 6
Target: Interferon regulatory factor 3, full length, phosphomimetic (IRF3, Homo sapiens, UniProt Q14653, residues 1-427, S386D/S396D/S398D/S402D/T404D/S405D)
Method: protein-binding microarray
Molecule type: double-stranded DNA, one strand shown
Matrix: in vitro
Concentration: 2540 nM top
Notes: 60-bp whole probe
Together with: salmon DNA 0.4 mg/ml
Baseline: random background probes
Direction: higher = stronger binding
Quantity: fitted relative affinity
All sequences stand within: GCCTAGCAC … GTCTTGATTCGCTTGACGCTGCTG
Residues (chain): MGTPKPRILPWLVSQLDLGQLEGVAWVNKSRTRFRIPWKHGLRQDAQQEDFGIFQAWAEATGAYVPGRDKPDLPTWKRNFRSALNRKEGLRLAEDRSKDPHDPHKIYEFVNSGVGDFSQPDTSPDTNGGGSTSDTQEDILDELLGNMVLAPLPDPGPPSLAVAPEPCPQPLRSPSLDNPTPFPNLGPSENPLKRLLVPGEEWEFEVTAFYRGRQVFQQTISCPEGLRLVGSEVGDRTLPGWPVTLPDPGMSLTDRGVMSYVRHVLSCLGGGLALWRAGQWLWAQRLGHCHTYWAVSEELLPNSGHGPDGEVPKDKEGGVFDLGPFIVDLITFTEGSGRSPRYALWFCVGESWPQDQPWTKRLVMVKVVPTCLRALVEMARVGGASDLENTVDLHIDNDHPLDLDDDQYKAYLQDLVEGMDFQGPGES
Oligonucleotide = TGAGGTCTCGGTATCGGTTAGTGCTAG; value = 2.16 z-score
Oligonucleotide = TCATATTTACTCTCTACAACTGTGCTA; value = 0.922 z-score
Oligonucleotide = TTAGGTATCGGTCTTGGTTAGTGCTAG; value = 4.36 z-score
Oligonucleotide = TTAGGTATCTACACTGGGTTAGTGCTA; value = -0.144 z-score
Oligonucleotide = GACGGTATCCTTATCCCGACGTGCTAG; value = 5.64 z-score
Oligonucleotide = TCATCTCTGAAGACTCTCACTGTGCTA; value = 0.682 z-score
Oligonucleotide = CCGTGTTTCTCAAATGTTTTGGTGCTA; value = 0.776 z-score
Oligonucleotide = GACGGACTGGGGATTCGGGACGTGCTA; value = -0.717 z-score
Oligonucleotide = GACGGACTGCTTTTCCCGACGTGCTAG; value = -0.0159 z-score
Oligonucleotide = GGTCTTTCCGATTAGTCCCCGTGCTAG; value = 3.42 z-score
Oligonucleotide = GACGAAGTGAGTTTCGAGACGTGCTAG; value = 1.17 z-score
Oligonucleotide = GTCGGTATCCTACTGCTGACGTGCTAG; value = 4.09 z-score
Oligonucleotide = TTCTCTCCCATTCTGAATTCGTGCTAG; value = 2.85 z-score
Oligonucleotide = GGGATGGTGGGGCTCCTCCTGTGCTAG; value = -1.26 z-score
Oligonucleotide = TACTCTCTCCATGTGTTTAAGTGCTAG; value = 0.513 z-score
Oligonucleotide = GACGAACTGAGTCCCGAGACGTGCTAG; value = -0.35 z-score
Oligonucleotide = TTAGGTTTCCTACTGCTTTGGTGCTAG; value = 4.68 z-score
Oligonucleotide = TTAGGTTTCGACTTTCGGATAGTGCTA; value = 3.81 z-score
Oligonucleotide = GACGGACTGGAACTGGGGACGTGCTAG; value = -0.56 z-score
Oligonucleotide = TTACATTCCCCATTGTGTTGGTGCTAG; value = 1.36 z-score
Oligonucleotide = TACTTTCTTTTTTTCTTTTAGTGCTAG; value = 5.78 z-score
